{"data": "Measured values pooled from the literature", "note": "Values joined by “and” are separate records of one study, mostly repeats; a detail may differ. ± gives the spread as reported.", "UniProt Q96IU4, sequence (whole entry, looked up)": "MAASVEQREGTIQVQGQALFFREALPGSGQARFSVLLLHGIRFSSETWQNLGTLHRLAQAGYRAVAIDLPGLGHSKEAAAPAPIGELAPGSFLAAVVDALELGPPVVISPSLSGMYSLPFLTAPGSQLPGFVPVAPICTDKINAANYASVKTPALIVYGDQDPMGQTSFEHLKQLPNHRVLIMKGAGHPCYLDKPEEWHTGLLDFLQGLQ", "UniProt Q9HCP0, sequence (whole entry, looked up)": "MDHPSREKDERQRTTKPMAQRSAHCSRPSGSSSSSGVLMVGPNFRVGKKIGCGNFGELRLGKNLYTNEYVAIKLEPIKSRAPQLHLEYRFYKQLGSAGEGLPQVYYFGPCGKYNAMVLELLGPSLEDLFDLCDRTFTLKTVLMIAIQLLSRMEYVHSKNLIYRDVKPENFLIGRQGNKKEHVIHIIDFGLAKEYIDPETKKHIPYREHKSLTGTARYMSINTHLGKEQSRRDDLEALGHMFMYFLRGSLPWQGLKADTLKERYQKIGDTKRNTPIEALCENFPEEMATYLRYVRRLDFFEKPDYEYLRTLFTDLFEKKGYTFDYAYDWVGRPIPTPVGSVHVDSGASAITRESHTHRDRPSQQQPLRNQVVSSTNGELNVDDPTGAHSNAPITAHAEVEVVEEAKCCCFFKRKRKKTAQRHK", "UniProt Q9UJZ1, sequence (whole entry, looked up)": "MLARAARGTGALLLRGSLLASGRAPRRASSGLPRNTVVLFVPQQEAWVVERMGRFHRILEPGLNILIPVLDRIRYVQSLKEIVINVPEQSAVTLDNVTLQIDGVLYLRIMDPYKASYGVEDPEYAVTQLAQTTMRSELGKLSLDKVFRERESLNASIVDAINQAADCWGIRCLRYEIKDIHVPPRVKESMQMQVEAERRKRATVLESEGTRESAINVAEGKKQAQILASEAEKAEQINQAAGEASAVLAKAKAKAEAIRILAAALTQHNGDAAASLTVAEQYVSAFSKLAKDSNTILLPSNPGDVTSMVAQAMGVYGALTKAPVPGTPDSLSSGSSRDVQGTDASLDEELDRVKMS"}
{"SMILES": "COc1c(C)c2c(c(O)c1C/C=C(\\C)CCC(=O)O)C(=O)OC2", "tested on": "SF-295", "test": "cell proliferation", "test system": "brain cancer", "endpoint": "IC50", "result": "0.525 µM"}
{"SMILES": "Nc1ncnc2c1ncn2[C@@H]1O[C@@H]2COP(=O)(O)O[C@H]3[C@@H](O)[C@H](n4cnc5c(=O)[nH]cnc54)O[C@@H]3COP(=O)(O)O[C@H]2[C@H]1O", "tested on": "HFF-1", "test": "RNA sequencing, refers to: Cytokine Signaling", "conditions": "upregulated pathway", "scale": "relative to: Zika virus alone", "endpoint": "pathway fold enrichment", "result": 5.21}
{"SMILES": "COc1cc(OC)c(C=C2C(O)=Nc3ccccc32)c(OC)c1", "tested on": "HD-MB03", "conditions": "with: ribociclib 5 µM", "scale": "relative to: ribociclib over DMSO", "endpoint": "fold change in IC50", "result": 2.2}
{"SMILES": "COc1ncccc1-c1cnn2ccc(N3CCN(C(=O)OC(C)C)CC3)nc12", "tested on": "hTERT-RPE1", "test": "refers to: AP-2 µ2 Thr156 phosphorylation", "conditions": "10 µM, 2 h", "endpoint": "inhibition", "result": "~60%"}
{"SMILES": "C[C@H]1CN(c2n[nH]c3nc(N[C@H]4CC[C@H](NS(=O)(=O)CCC(F)(F)F)CC4)ncc23)CCO1", "tested on": "Stomatin-like protein 2, mitochondrial (Homo sapiens, UniProt Q9UJZ1)", "test": "Kinobeads competition, refers to: STOML2", "conditions": "20 µM, unit not given", "scale": "relative to: vehicle", "endpoint": "remaining binding", "result": 1.13}
{"SMILES": "CN1CCN(C2(CNC3CCN(c4cccc(-c5cc6cc(F)ccc6[nH]5)c4)CC3)CCC2)CC1", "tested on": "SF-295", "endpoint": "CC50", "result": "6.85 µM"}
{"SMILES": "Cc1nn(-c2nc3c(F)cc(F)cc3s2)c(O)c1C(c1ccc(C(F)(F)F)cc1)c1c(C)nn(-c2nc3c(F)cc(F)cc3s2)c1O", "tested on": "RAW-ISG", "test": "CCK-8", "conditions": "50 µM", "endpoint": "viability", "result": "67.8% and 73% and 64.1% and 42.9% and 39%"}
{"SMILES": "CN1CC[C@@H](c2c(O)cc(O)c3c(=O)cc(-c4ccc(C(F)(F)F)cc4Cl)oc23)[C@@H]1CO", "test": "refers to: Neutropenia", "test system": "relapsed AML", "conditions": "oral, 100 mg, grade 3-4, intermittent dosing", "endpoint": "patients with adverse event", "result": "0%"}
{"SMILES": "COc1ccc2c(c1)[nH]c1c(C)nccc12", "tested on": "DU-145", "test": "bisulfite pyrosequencing, refers to: RASSF1A promoter CpG site 5", "conditions": "10 µM, 16 h", "endpoint": "DNA methylation", "result": "86.8%"}
{"SMILES": "O=C(c1ccc(Cl)cc1)N1CCN2C(=O)N(OC(=O)N3CCOc4ccccc43)C(=O)C2C1 (stereo not drawn)", "tested on": "Putative protein-lysine deacylase ABHD14B (Homo sapiens, UniProt Q96IU4)", "test": "MS-based ABPP", "test system": "SW-620 conditioned medium", "conditions": "10 µM, 1 h, 37 °C, mean protein ratio", "scale": "relative to: compound over DMSO", "endpoint": "probe labelling ratio", "result": 1.32}
{"SMILES": "CC(C)N1CCC(NC2CCN(c3cccc(-c4cc5cc(F)ccc5[nH]4)c3)CC2)CC1", "tested on": "HT-29", "endpoint": "GI50", "result": "0.4 µM"}
{"SMILES": "COc1c(CCC[P+](c2ccccc2)(c2ccccc2)c2ccccc2)cc2c(c1OC)OCO2.[I-]", "tested on": "SF-295", "test": "SRB", "endpoint": "GI50", "result": "-5.58 log M"}
{"SMILES": "C[C@@H](O)[C@@H](CO)NC(=O)[C@@H](CCCNC(=N)N)NC(=O)[C@@H]1CCCN1C(=O)[C@@H]1CSSC[C@H](NC(=O)[C@H](Cc2ccccc2)NC(=O)CN2CCN(CC(=O)O)CCN(CC(=O)O)CCN(CC(=O)O)CC2)C(=O)N[C@@H](Cc2ccc(O)cc2)C(=O)N[C@@H](Cc2ccccc2)C(=O)N[C@@H](CCC(N)=O)C(=O)N[C@@H](CC(N)=O)C(=O)N1 [gallium-68 labelled]", "test system": "healthy Wistar rat, small intestine", "conditions": "intravenous, 8 MBq, 60 min, individual animals", "endpoint": "tissue uptake", "result": "0.07 %ID/g"}
{"SMILES": "O=C([O-])CN1CCN(CC(=O)[O-])CCN(CC(=O)NCC2CCC(C(=O)N[C@@H](Cc3ccc4ccccc4c3)C(=O)NCCCC[C@H](NC(=O)N[C@@H](CCC(=O)O)C(=O)O)C(=O)O)CC2)CCN(CC(=O)[O-])CC1.[177Lu+3] (stereo partly drawn)", "tested on": "22Rv1", "conditions": "24 h, efflux", "scale": "relative to: dose", "endpoint": "cell retention", "result": "0.94 ± 0.2%"}
{"SMILES": "CC(=O)O[C@H]1CC[C@@]2(C)[C@H](CC[C@@H]3[C@@H]2CC[C@]2(C)[C@@H](C4=CC(=O)OC4)[C@@H](OC(C)=O)C[C@]32O)C1", "tested on": "MYBPC3 iPSC cardiomyocytes", "test": "plate-normalised", "conditions": "concentration not given, 24 h, hit retest", "endpoint": "MyBP-C level", "result": "18.8%"}
{"SMILES": "COc1cc(Nc2ncc(F)c(Nc3ccc4c(n3)NC(=O)C(C)(C)O4)n2)cc(OC)c1OC", "tested on": "NMDA receptor glycine site", "endpoint": "IC50", "result": "> 10 µM"}
{"SMILES": "Cc1cc(C(C)(C)c2ccc(O)c(C)c2)ccc1O", "tested on": "HepG2 spheroids", "test": "Hoechst flow cytometry", "conditions": "0.1 µM, 24 h", "endpoint": "G2 phase cells", "result": "20.4 ± 4.54%"}
{"SMILES": "COc1cc(CCC[P+](c2ccccc2)(c2ccccc2)c2ccccc2)c(OC)c2c1OCO2.[I-]", "tested on": "RPMI-8226", "test": "SRB", "endpoint": "GI50", "result": "-6.55 log M"}
{"SMILES": "COc1cc2c(Oc3ccc4[nH]c(C)cc4c3F)ccnc2cc1OCC1(N)CC1", "test": "refers to: grade 3 gingival bleeding", "test system": "paediatric high-risk refractory sarcoma", "conditions": "8 mg", "endpoint": "incidence of adverse event", "result": "0%"}
{"SMILES": "C[C@@H]1C[C@@H]([C@H](O)CC2CC(=O)NC(=O)C2)C(=O)[C@@H](C)C1", "tested on": "LDR", "test": "silenced CMV-GFP reporter derepression, qHTS", "endpoint": "efficacy", "result": "32%"}
{"SMILES": "CO[C@H]1C[C@@H]2CC[C@@H](C)[C@@](O)(O2)C(=O)C(=O)N2CCCC[C@H]2C(=O)O[C@H]([C@H](C)C[C@@H]2CC[C@@H](OC(=O)NCCOCCOCCOCCOCCOCCOCCOCCOCCC(=O)N3CCc4cc(Cn5nc(-c6ccc7oc(N)nc7c6)c6c(N)ncnc65)ccc4C3)[C@H](OC)C2)C[C@@H](O)[C@H](C)/C=C(\\C)[C@@H](O)[C@@H](OC)C(=O)[C@H](C)C[C@H](C)/C=C/C=C/C=C/1C", "test system": "patients with advanced solid tumours", "conditions": "intravenous, dose not given, any grade", "endpoint": "incidence of Nausea TRAE", "result": "43.9%"}
{"SMILES": "CC[C@H](C)[C@@H]1NC(=O)[C@@H]2CCCN2C(=O)[C@H](CC(C)C)NC(=O)[C@H](CC(C)C)NC(=O)CNC(=O)[C@@H](NC(=O)[C@@H](NC(=O)[C@H](CC(=O)O)NC(=O)CNC(=O)[C@@H](NC(=O)[C@H](C)NC(=O)CNC(=O)[C@H](CCCCN)NC(=O)[C@H](CC(C)C)NC(=O)[C@H](CC(C)C)NC(=O)[C@H](CCCCN)NC(=O)CNC(=O)[C@@H](NC(=O)[C@@H](N)CC(C)C)C(C)C)C(C)C)C(C)C)CSSC[C@@H](C(=O)O)NC1=O", "test": "RNA-seq, refers to: novel.268 mRNA", "test system": "mouse traumatic brain injury, frontal cortex and hippocampus", "conditions": "dose not given", "scale": "relative to: TBI plus compound vs TBI", "endpoint": "log2 fold change", "result": 0.872}
{"SMILES": "O=c1cc(-c2ccccc2)oc2c(O)c(O)ccc12", "tested on": "SH-SY5Y Aβ-GFP cells, scrambled shRNA", "conditions": "5 µM", "endpoint": "neurite branch number", "result": "1.8 to 2.1"}
{"SMILES": "Oc1ccc(C2(c3ccc(O)cc3)c3ccccc3-c3ccccc32)cc1", "tested on": "HepG2 spheroids", "test": "Hoechst flow cytometry", "conditions": "0.1 µM, 24 h", "endpoint": "G1 phase cells", "result": "73.7 ± 4.76%"}
{"SMILES": "CC[C@H](C)[C@H](NC(=O)[C@H](Cc1ccccc1)NC(=O)[C@H](CCC(=O)O)NC(=O)[C@H](CCCNC(=N)N)NC(=O)[C@H](C)NC(=O)[C@H](C)NC(=O)[C@H](CCC(N)=O)NC(=O)[C@H](CCC(=O)O)NC(=O)[C@H](CCC(=O)O)NC(=O)[C@H](CC(C)C)NC(=O)[C@H](Cc1ccc(O)cc1)NC(=O)[C@H](CO)NC(=O)[C@H](CO)NC(=O)[C@@H](NC(=O)[C@H](CC(=O)O)NC(=O)[C@H](CO)NC(=O)[C@@H](NC(=O)[C@H](Cc1ccccc1)NC(=O)[C@@H](NC(=O)CNC(=O)[C@H](CCC(=O)O)NC(=O)[C@H](C)NC(=O)CCc1c[nH]cn1)[C@@H](C)O)[C@@H](C)O)C(C)C)C(=O)N[C@@H](C)C(=O)N[C@@H](Cc1c[nH]c2ccccc12)C(=O)N[C@@H](CC(C)C)C(=O)N[C@H](C(=O)N[C@@H](CCCNC(=N)N)C(=O)NCC(=O)N[C@@H](CCCNC(=N)N)C(=O)N[C@@H](CCCCNC(=O)COCCOCCNC(=O)COCCOCCNC(=O)CC[C@H](NC(=O)CCCCCCCCCCCCCCCCC(=O)O)C(=O)O)C(=O)NCC(=O)NCC(=O)N[C@@H](CO)C(=O)N[C@@H](CCCCNc1c(NCCCCCN(O)C(=O)CCC(=O)NCCCCCN(O)C(=O)CCC(=O)NCCCCCN(O)C(C)=O)c(=O)c1=O)C(=O)O)C(C)C [zirconium-89 labelled]", "test": "ex vivo gamma counting", "test system": "rat, kidney", "conditions": "subcutaneous, 3 nmol/kg, 168 h, with: [89Zr]-labelled peptide", "endpoint": "tissue uptake", "result": "5.17 %ID/g"}
{"SMILES": "Cc1cc(O)ccc1Cl", "tested on": "SH-SY5Y", "test": "neurite outgrowth inhibition, phase-contrast imaging", "conditions": "freely dissolved concentration", "endpoint": "EC10", "result": "33.1 µM"}
{"SMILES": "COc1ccc([C@@H](O)c2cc(-c3ncnc4cc(N5CCOCC5)ccc34)c(F)cc2Cl)nn1", "tested on": "M12", "conditions": "30 nM, with: radiation 2.5 Gy", "endpoint": "clonogenic survival", "result": "41 ± 3%"}
{"SMILES": "COc1ccc(N2C(=O)N(c3c(C)cccc3Cl)Cc3cnc(Nc4ccc(C5CCN(C)CC5)cc4OC)nc32)nc1", "tested on": "CSNK1G1 (Homo sapiens, UniProt Q9HCP0)", "test": "kinase activity, inhibitor", "conditions": "0.5 µM, kinase CK1-GAMMA1", "endpoint": "inhibition", "result": "1.13%"}
{"SMILES": "C/C=C(/C)C(=O)O[C@H]1C(C)=C2[C@H]([C@@H]1OC(=O)CCCCCCC)[C@@](C)(OC(C)=O)C[C@H](OC(=O)CCC)[C@@]1(O)[C@H]2OC(=O)[C@@]1(C)O", "tested on": "HEK-293T", "test": "RNA-seq GSEA, refers to: Hallmark protein secretion", "conditions": "500 nM, 6 h", "scale": "direction not given", "endpoint": "normalized enrichment score", "result": 2.26}
{"SMILES": "O=C1CCP(=S)(c2ccccc2)CC1", "tested on": "SW480", "test": "ELISA", "conditions": "IC50, 72 h", "endpoint": "IL-6 level", "result": "1.2 ± 0.24 pg/mL"}
{"note": "For quick reference, copied from above:"}
{"SMILES": "C[C@H]1CN(c2n[nH]c3nc(N[C@H]4CC[C@H](NS(=O)(=O)CCC(F)(F)F)CC4)ncc23)CCO1", "tested on": "Stomatin-like protein 2, mitochondrial (Homo sapiens, UniProt Q9UJZ1)", "test": "Kinobeads competition, refers to: STOML2", "conditions": "20 µM, unit not given", "scale": "relative to: vehicle", "endpoint": "remaining binding", "result": 1.13}
{"SMILES": "O=C(c1ccc(Cl)cc1)N1CCN2C(=O)N(OC(=O)N3CCOc4ccccc43)C(=O)C2C1 (stereo not drawn)", "tested on": "Putative protein-lysine deacylase ABHD14B (Homo sapiens, UniProt Q96IU4)", "test": "MS-based ABPP", "test system": "SW-620 conditioned medium", "conditions": "10 µM, 1 h, 37 °C, mean protein ratio", "scale": "relative to: compound over DMSO", "endpoint": "probe labelling ratio", "result": 1.32}
{"SMILES": "COc1cc(CCC[P+](c2ccccc2)(c2ccccc2)c2ccccc2)c(OC)c2c1OCO2.[I-]", "tested on": "RPMI-8226", "test": "SRB", "endpoint": "GI50", "result": "-6.55 log M"}
{"SMILES": "CN1CC[C@@H](c2c(O)cc(O)c3c(=O)cc(-c4ccc(C(F)(F)F)cc4Cl)oc23)[C@@H]1CO", "test": "refers to: Neutropenia", "test system": "relapsed AML", "conditions": "oral, 100 mg, grade 3-4, intermittent dosing", "endpoint": "patients with adverse event", "result": "0%"}
